Published values pooled from the literature.
Each line is one published result; not all experiments were run side by side. Values joined by “and” are separate records of one study, mostly repeats; a detail may differ. ± gives the spread as reported.
UniProt O70423, sequence (whole entry, looked up): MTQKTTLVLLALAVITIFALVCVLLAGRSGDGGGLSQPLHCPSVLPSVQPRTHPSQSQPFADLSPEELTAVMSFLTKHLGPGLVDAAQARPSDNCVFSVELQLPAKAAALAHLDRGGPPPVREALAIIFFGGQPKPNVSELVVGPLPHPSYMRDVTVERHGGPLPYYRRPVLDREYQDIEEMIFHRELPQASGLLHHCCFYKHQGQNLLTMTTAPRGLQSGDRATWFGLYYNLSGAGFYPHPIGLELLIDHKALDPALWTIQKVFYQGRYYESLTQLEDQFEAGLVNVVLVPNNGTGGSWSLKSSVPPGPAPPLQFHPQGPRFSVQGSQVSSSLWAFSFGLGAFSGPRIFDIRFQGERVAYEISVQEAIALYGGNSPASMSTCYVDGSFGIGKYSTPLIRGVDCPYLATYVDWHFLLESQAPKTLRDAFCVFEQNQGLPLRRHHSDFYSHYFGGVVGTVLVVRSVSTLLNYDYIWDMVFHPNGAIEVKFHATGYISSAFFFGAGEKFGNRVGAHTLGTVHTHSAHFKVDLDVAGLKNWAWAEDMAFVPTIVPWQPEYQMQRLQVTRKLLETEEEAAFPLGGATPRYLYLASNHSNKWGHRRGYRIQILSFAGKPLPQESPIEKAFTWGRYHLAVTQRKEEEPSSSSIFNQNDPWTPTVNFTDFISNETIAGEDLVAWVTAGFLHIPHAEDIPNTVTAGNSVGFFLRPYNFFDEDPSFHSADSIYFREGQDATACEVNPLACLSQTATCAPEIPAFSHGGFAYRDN
UniProt P08684, sequence (whole entry, looked up): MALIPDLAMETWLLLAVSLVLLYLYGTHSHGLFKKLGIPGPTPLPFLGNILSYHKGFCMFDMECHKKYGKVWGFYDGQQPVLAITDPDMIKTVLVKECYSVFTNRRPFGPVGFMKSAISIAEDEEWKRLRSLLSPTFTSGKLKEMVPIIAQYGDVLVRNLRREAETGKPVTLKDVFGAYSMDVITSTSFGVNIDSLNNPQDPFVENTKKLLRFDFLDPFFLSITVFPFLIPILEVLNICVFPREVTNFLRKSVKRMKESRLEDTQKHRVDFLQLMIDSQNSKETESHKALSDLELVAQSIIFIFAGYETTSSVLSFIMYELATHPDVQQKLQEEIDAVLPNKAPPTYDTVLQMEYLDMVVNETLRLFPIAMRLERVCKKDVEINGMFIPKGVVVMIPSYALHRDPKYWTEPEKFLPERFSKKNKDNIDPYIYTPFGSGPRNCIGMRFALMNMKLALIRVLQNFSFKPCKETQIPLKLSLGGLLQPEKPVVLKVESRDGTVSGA
UniProt Q13188, sequence (whole entry, looked up): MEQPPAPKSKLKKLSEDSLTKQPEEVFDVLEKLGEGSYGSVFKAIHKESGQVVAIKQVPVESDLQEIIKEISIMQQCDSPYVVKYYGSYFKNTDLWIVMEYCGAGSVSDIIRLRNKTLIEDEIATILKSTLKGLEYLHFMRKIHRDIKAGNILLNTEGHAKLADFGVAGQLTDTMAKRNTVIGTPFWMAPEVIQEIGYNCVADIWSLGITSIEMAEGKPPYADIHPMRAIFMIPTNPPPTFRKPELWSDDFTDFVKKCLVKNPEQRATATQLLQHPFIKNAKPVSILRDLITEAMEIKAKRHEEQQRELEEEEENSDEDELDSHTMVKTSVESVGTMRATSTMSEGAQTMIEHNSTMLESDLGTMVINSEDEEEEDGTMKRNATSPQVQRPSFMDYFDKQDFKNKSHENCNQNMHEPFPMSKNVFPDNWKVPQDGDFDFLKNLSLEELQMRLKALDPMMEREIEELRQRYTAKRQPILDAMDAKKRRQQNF
UniProt Q9UBN7, sequence (whole entry, looked up): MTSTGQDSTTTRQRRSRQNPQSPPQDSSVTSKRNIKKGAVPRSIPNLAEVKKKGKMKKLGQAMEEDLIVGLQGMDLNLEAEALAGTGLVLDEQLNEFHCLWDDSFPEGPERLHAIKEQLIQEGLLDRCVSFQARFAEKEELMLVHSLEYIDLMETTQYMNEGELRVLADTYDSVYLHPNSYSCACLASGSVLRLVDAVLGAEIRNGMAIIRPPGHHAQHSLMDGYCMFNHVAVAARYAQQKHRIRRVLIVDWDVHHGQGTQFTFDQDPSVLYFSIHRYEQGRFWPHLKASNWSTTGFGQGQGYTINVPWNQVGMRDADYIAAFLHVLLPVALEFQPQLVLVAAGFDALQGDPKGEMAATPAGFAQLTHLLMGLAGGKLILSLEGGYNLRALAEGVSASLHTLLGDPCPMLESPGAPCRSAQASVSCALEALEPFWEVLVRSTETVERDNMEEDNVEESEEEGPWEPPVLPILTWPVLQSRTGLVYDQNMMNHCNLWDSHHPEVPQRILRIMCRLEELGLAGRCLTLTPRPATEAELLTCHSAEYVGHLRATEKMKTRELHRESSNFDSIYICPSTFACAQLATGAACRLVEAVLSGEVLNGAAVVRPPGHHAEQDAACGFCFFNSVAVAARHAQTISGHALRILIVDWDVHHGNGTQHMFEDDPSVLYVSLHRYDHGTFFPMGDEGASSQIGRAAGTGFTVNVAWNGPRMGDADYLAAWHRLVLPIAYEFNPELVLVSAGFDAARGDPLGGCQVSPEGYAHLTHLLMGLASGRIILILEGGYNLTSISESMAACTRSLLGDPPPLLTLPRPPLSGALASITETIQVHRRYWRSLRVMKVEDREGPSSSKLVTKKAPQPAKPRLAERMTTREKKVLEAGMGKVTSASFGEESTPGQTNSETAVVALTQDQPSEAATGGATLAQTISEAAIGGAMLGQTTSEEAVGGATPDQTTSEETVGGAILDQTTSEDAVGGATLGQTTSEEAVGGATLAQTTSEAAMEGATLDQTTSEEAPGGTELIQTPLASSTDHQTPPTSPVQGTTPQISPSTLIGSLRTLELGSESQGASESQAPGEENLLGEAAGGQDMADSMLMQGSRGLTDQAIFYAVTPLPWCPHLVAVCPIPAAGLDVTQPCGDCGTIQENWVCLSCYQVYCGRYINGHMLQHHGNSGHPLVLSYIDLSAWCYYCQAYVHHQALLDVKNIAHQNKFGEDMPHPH

| SMILES | tested on | assay | test system | conditions | how to read | endpoint | value |
| --- | --- | --- | --- | --- | --- | --- | --- |
| O=C(Cn1nc(-c2cccc([N+](=O)[O-])c2)c2ccccc2c1=O)NCC1CCCO1 (stereo not shown) |  |  | aqueous buffer | pH 7.4 |  | solubility | 8.03 µg/mL |
| CCOC(=O)N1C[C@@H](C2CCCCC2)N[C@@H](c2cccc(Br)c2)C1 |  | shake-flask, LC-HRMS | aqueous buffer | 16 h, pH 6.8 |  | solubility | < 4 µM |
| Cc1[nH]c(C)c(S(=O)(=O)Nc2ccc(C(F)(F)F)c(Cl)c2)c1C(=O)N1CCC(F)(F)C1 |  |  | mouse, brain | intraperitoneal, 40 mg/kg |  | AUC(0-t) | 17600 ng·h/g |
| NC1(C(=O)N[C@@H](CCO)c2ccc(Cl)cc2)CCN(c2nc[nH]c3nccc2-3)CC1 |  |  | metastatic CRPC patients | 320 mg b.i.d., any grade, treatment-related, with: enzalutamide 160 mg daily |  | incidence of Nausea | 66.7% |
| Cc1cc(Nc2ncnc3ccc(NC4=NC(C)(CO)CO4)cc23)ccc1Oc1ccn2ncnc2c1 (stereo not shown) |  |  | human, plasma | oral, 300 mg tucatinib single dose, day 1, tucatinib alone |  | Cmax (geometric mean) | 42.6 ng/mL |
| C[C@@H](NC(=O)N1C(=O)[C@H](Cc2ccnc(N)c2)[C@H]1C(=O)O)C1CCCCC1 |  | UPLC-MS/MS | healthy adult Chinese volunteers, plasma | continuous intravenous infusion, 2.25 mg/kg/h, day 1 of 5-day infusion, geometric mean |  | Css | 8000 ng/mL |
| Clc1cc(Cl)cc([C@H]2COC[C@H](C3CCCCC3)N2)c1 |  | shake-flask, LC-HRMS | aqueous buffer | 16 h, pH 6.8 |  | solubility | < 4 µM |
| CN1CCN(c2cccc3c2CCN(C(=O)/C=C/c2c(-n4cnnn4)ccc(Cl)c2F)[C@@H]3C(=O)Nc2ccc(C(=O)O)cc2)C(=O)C1 |  |  | healthy human subjects | intravenous infusion, 25 mg/h, 2 h |  | discontinuations due to adverse events | 0% |
| NCc1cc2c(cc1F)C(=O)N(C1CCC(=O)NC1=O)C2 (stereo not shown) | Amine oxidase [copper-containing] 3 (Mus musculus, UniProt O70423) | substrate, LC-MS/MS | recombinant mouse enzyme | 10 µM, 20 h, pH 7.4, with: inhibitor 0.25 µM |  | concentration | 3400 nM |
| CCOc1c([C@H](C)n2nc(C)c3c(N)ncnc32)cc(Cl)c(F)c1[C@@H]1CNC(=O)C1 |  |  | human Hodgkin lymphoma patients, plasma | oral, 20 mg, day 15 |  | Cmin | 395 nM |
| CCc1cc(C(=O)NC)c2nccc(N3CCc4c(cc(Cn5ccnc5)cc4-c4cn(C)nc4C(F)(F)F)C3=O)c2c1 |  |  | Sprague Dawley rats | oral, 100 mg/kg once daily, 7 days | relative to: vehicle | serum WBC change | -24% |
| CCCCOC(=O)N1CCN(C(=O)[C@H](CP(=O)(O)O)NC(=O)c2cc(N3CC[C@H](OC)C3)nc(-c3ccccc3)n2)CC1 |  | refers to: Sodium | human, blood | 8 mg, 24 h |  | change from baseline | 0.2 ± 1.9 mmol/L |
| CC[C@H](Nc1ncnc2[nH]cnc12)c1oc2ccccc2c(=O)c1-c1cccc(F)c1 |  |  | human patients, plasma | oral, 400 mg twice daily, with: romidepsin 12 mg/m2 |  | elimination rate constant | 9.78e-05 ± 1.02e-05 s⁻¹ |
| O=c1[nH]c(=O)n([C@H]2C[C@H](O)[C@@H](CO)O2)cc1CCC[18F] |  |  | male CD-1 nu/nu mice, RG2 tumour, lung | intravenous, dose not given, 2 h |  | biodistribution | 0.31 ± 0.1 %ID/g |
| CCOC(=O)N1C[C@@H]([C@H]2CCOC2)N[C@@H](C2CCCCC2)C1 |  | shake-flask, LC-HRMS | aqueous buffer | 16 h, pH 6.8 |  | solubility | > 750 µM |
| Cc1c(C(=O)O)ccc2c3n(nc12)[C@@H]1[C@H](C3)N(CC2CC2)[C@@]2(C(=O)Nc3cc(Cl)ccc32)[C@H]1c1cccc(Cl)c1F |  |  | female BALB/c nude mice, SJSA-1 xenograft, plasma | oral, 1 mg/kg twice daily |  | half-life | 7.7 h and 14.2 h and 13.6 h and 5.1 h and 5.6 h |
| Cn1cc(Nc2nccc(-c3ccc4c(c3)CN(C3COC3)CC[C@H]4NC(=O)c3cn(C(C)(C)C)nn3)n2)cn1 |  |  | human, whole blood | 300 mg twice daily, day 7 | relative to: pre-dose baseline | monocyte count change | -0.89% |
| Cc1c(-c2ccc(N3CCc4cccc(C(=O)Nc5nc6ccccc6s5)c4C3)nc2C(=O)O)cnn1CC12CC3(C)CC(C)(C1)CC(OCCNCC[C@H](O)CO)(C3)C2 |  |  | beagle dog, male, anaesthetised | intravenous infusion, 0.3 mg/kg/min, 15 min | relative to: vehicle | QRS duration change | 0 ms |
| CCN1/C(=C/C(C)=O)Sc2ccc(F)cc21 |  |  | cynomolgus monkey | oral, 30 mg/kg, 0.5 h post-dose | relative to: pre-dose | QTc interval change | 101 ± 1.4% |
| O=C(O)CCC(=O)Nc1cccc2ccccc12 | Protein deacetylase HDAC6, ZnF-UBD domain (HDAC6, Homo sapiens, UniProt Q9UBN7) |  |  |  |  | Kd | 199 µM |
| CCOCc1nc(O)c(-c2nnc(Cc3ccc(Cl)cn3)o2)c(O)c1-c1c(OC)cccc1OC |  |  | anaesthetised rat, plasma | intravenous infusion, 10 µg/kg/min, 5 min |  | plasma concentration | 855 ± 54 nM |
| CC(C)=CCC/C(C)=C/CC/C(C)=C/CC[C@@](C)(O)CCC1=C(C)C(=O)C(C)=C(C)C1=O |  |  | human | 400 mg, with: itraconazole 200 mg |  | itraconazole half-life | no effect |
| O=C(O)CCCOc1ccc([18F])cc1-c1cc(-c2ccccc2C(F)(F)F)n(-c2ccccc2)n1 |  | gamma counting | male ddY mice, muscle | intravenous, 2.1 MBq, 1 min |  | radioactivity uptake | 1.07 ± 0.6 SUV |
| C[C@@H](Oc1ccc(S(C)(=O)=O)cc1C(=O)N1C[C@@H]2C[C@]2(c2cc(C(F)(F)F)on2)C1)C(F)(F)F |  |  | elderly humans, plasma | oral, 25 mg once daily, geometric mean | relative to: AUCtau,ss over AUC(0-inf) | linearity index | 0.964 |
| Cc1cc([C@H]2C[C@H]3[C@@H](C)SC(N)=N[C@@]3(c3ccc(F)cc3F)CO2)on1 |  |  | male 129/SVE mouse, CSF | subcutaneous, 50 mg/kg, 9 h |  | CSF concentration | 11 nM |
| C[C@H](CCC(=O)O)[C@H]1CC[C@H]2[C@@H]3[C@H](O)C[C@@H]4C[C@H](O)CC[C@]4(C)[C@H]3C[C@H](O)[C@]12C |  |  | human, plasma | control |  | Cmin | 21.3 ± 5.4 nM |

| SMILES | tested on | assay | test system | conditions | how to read | endpoint | value |
| --- | --- | --- | --- | --- | --- | --- | --- |
| Cc1ccc([C@@H]2O[C@H](CO)[C@@H](O)[C@H](O)[C@H]2O)cc1Cc1ccc(-c2ccc(F)cc2)s1 |  | refers to: inorganic phosphorus | Japanese type 2 diabetes patients | 25 mg, day 6, 24 h urine collection | relative to: baseline | urinary phosphate excretion change | 13.9 mg |
| CNCc1ccc(-c2[nH]c3cc(F)cc4c3c2CCNC4=O)cc1 |  |  | human patients | oral, 360 mg twice daily, all grades |  | vomiting incidence | 37.5% |
| CCO[C@H]1CCN(Cc2c(OC)cc(C)c3[nH]ccc23)[C@H](c2ccc(C(=O)O)cc2)C1 |  |  | healthy volunteers, plasma | oral, 200 mg single dose, median |  | total Tmax | 2.5 h |
| CC[C@H]1[C@@H](O)[C@@H]2[C@H](CC[C@]3(C)[C@@H]([C@H](C)CCNC(=O)NS(=O)(=O)c4ccc(C(C)(C)C)cc4)CC[C@@H]23)[C@@]2(C)CC[C@@H](O)C[C@@H]12 | Cytochrome P450 3A4 (CYP3A4, Homo sapiens, UniProt P08684) |  | human, plasma | dose not given, mean, with: fluconazole |  | AUC(0-inf) | 1660 ng·h/mL |
| CCO[C@H]1CCN(Cc2c(OC)cc(C)c3[nH]ccc23)[C@H](c2ccc(C(=O)O)cc2)C1 |  |  | PNH patients, active haemolysis | oral, 50 mg, 4 weeks, treatment |  | incidence of abdominal discomfort | 0% |
| CCCCC[C@H]1CC[C@H](c2ccc(OCC)c(F)c2F)CC1 |  |  | rat, placenta | 10 ng/mL in perfusate, low dose, mixture of 21 LCMs |  | placental accumulation | 25.6 ± 13 ng/g |
| CCOC(=O)N1C[C@@H](c2cnn(C)c2)N[C@@H](c2ccc(C(=O)OC)cc2)C1 |  | shake-flask, LC-HRMS | aqueous buffer | 16 h, pH 6.8 |  | solubility | > 750 µM |
| CC(C)C[C@H](NC(=O)C[C@H](O)[C@H](CC(C)C)NC(=O)[C@H](Cc1c[nH]cn1)NC(=O)CNC(=O)[C@@H](NC(=O)[C@H](C)NC(=O)[C@H](Cc1c[nH]c2ccccc12)NC(=O)[C@H](CCC(N)=O)NC(=O)[C@@H](Cc1ccccc1)NC(=O)COCCOCCNC(=O)CCC(C(=O)O)N1CCN(CC(=O)O)CCN(CC(=O)O)CCN(CC(=O)O)CC1)C(C)C)C(N)=O (stereo partly shown) [lutetium-177 labelled] |  |  | BALB/c nu/nu mice, female, bone | 50 pmol, 1 h, with: PBS co-injection |  | tissue uptake | 0.2 ± 0.1 %ID/g |
| Cc1nc(C)c(-c2ccnc(Nc3ccc(N(C)C)c([N+](=O)[O-])c3)n2)s1 |  |  | aqueous buffer | pH 7.4 |  | solubility | < 1.32 µg/mL |
| CCC[C@@H](C)[C@H]1COC(C)(C)[C@@H](c2ccc(-c3ccccc3)cc2)N1 |  | shake-flask, LC-HRMS | aqueous buffer | 16 h, pH 6.8 |  | solubility | < 4 µM |
| Cc1cc(/C=C/C#N)cc(C)c1Nc1ccnc(Nc2ccc(C#N)cc2)n1 |  |  | buffer | 24 h, pH 4.5, 37 °C, below quantification limit 50 ng/mL |  | equilibrium solubility | not detected |
| COc1cccc(-c2n[nH]c(SCc3ccccn3)n2)c1OC | primary human lymphocytes |  |  | 0.063 mg/mL, 3 h, with: rat liver S9 |  | structural aberrations per 100 cells | 1 |
| CC(C)(C(=O)N1CCOc2c(C#N)cncc2C1)C(F)F |  |  | human, both sexes | oral, 40 mg single dose |  | subjects with myalgia TEAE | 16.7% |
| O=C(OC(C(F)(F)F)C(F)(F)F)N1CCN(Cc2cccc(Oc3ccccc3)c2)CC1 |  | PET blocking study | rhesus monkey, brain STR | 0.1 mg/kg, compound pretreatment, with: [18F]T-401 tracer |  | k2 | 0.065 min⁻¹ |
| C=CC(=O)Nc1cc(Nc2nccc(-c3cn(C)c4ccccc34)n2)c(OC)cc1N(C)CCN(C)C |  |  | human, plasma | oral, 80 mg, cycle 3 day 1, osimertinib alone, randomized arm |  | Tmax at steady state | 4.03 h |
| C[C@H]1CN(C(=O)CC#N)[C@]12CCN(c1ncnc3[nH]ccc13)C2 |  |  | healthy adults, plasma | oral, 3 mg single dose |  | Tmax, mean | 1 h |
| C[C@H]1O[C@@H](O[C@H]2CC[C@@]3(C)[C@@H](CC[C@]4(C)[C@@H]3C=C[C@]35OC[C@@]6(CCC(C)(C)C[C@H]63)[C@@H](O)C[C@]54C)[C@]2(C)CO)[C@H](O)[C@@H](O[C@@H]2O[C@H](CO)[C@@H](O)[C@H](O)[C@H]2O)[C@H]1O |  | UHPLC-MS/MS | mouse, plasma | oral, 50 mg/kg, 6 h |  | plasma concentration | 0.88 ng/mL |
| Cc1cc(Nc2ccc(S(F)(F)(F)(F)F)cc2)n2nc(C(C)(F)F)nc2n1 | Plasmodium vivax |  | human Plasmodium vivax malaria patients | oral, 600 mg |  | patients with any adverse event | 77.7% |
| Cn1cc(-c2ccc(-c3cncc(Cl)c3N3CCC4(CCNC4=O)CC3)cc2)cn1 | COLO 205 | gene expression, microarray, refers to: LAMB3 mRNA |  | concentration not given, 2 h | relative to: untreated cells | log2 fold change | 3.78 |
| O=C(Nc1cnccc1Cl)N1CCN(Cc2ccc3c(c2)OC(F)(F)O3)CC1 |  | refers to: Fatigue | human healthy young men | 75 mg, multiple dose |  | adverse event incidence | 50% |
| C=CC(=O)NC1CCN(c2ncc3ncnc(Nc4ccc(Oc5ccc6c(c5)ncn6C)c(C)c4)c3n2)CC1 |  | refers to: total radioactivity | healthy male volunteers, plasma | oral solution, 60 mg, with: [14C]-labelled compound |  | AUC0–24 | 13.3 µM·h |
| COc1cc(C(=O)N2CCC3(CC2)CC(=O)c2c(cnn2C(C)C)C3)cc(-c2ccc(C(=O)O)cc2)n1 |  |  | human, fasting serum | 100 mg once daily, day 13, adjusted geometric mean | relative to: placebo | HDL cholesterol change from baseline | -13.2% |
| COc1ccc(-c2coc3cc(O)cc(O)c3c2=O)cc1 | Caco-2 monolayers |  |  | 100 µg/mL, 2 h, basolateral to apical |  | amount transported | 16.7 ± 0.1% |
| CC[C@@H]1[C@H](F)C(=O)N[C@@H]1COc1nccc2cc(C(N)=O)c(OC)cc12 | STK3 (Homo sapiens, UniProt Q13188) | ATP probe binding, KiNativ profiling, refers to: MST2 Lys1 probe site | THP-1 cell lysate |  |  | IC50 | > 5 µM |
| COc1ccc(-c2coc3cc(O)ccc3c2=O)cc1 | Caco-2 monolayers |  |  | 100 µg/mL, 2 h | relative to: Papp(BL-AP) over Papp(AP-BL) | efflux ratio | 0.63 ± 0.01 |
| CC[C@H]1CC[C@H](c2ccc(-c3ccc(F)c(F)c3)cc2)CC1 |  |  | rat, placenta | 1000 ng/mL in perfusate, middle dose, mixture of 21 LCMs |  | placental accumulation | 12.1 ± 13.4 ng/g |
